# Experimental data gathered from unrelated publications.
# “And” joins repeats or separate records; there may be more than shown. Numbers after ± are the reported error.
SMILES,cell line,test,test system,conditions,how to read,endpoint,value
CC(=O)N[C@H](C(=O)N[C@H](C(=O)N[C@@H](CCCNC(=N)N)C(=O)N1Cc2ccccc2C[C@H]1C(=O)N[C@@H](Cc1ccccc1)C(N)=O)C1CCCCC1)C(C)C,human PBMC,"Bio-Plex multiplex, refers to: IL-7",,"250 µg/mL, 24 h",,cytokine level,0.3 ± 0.5 pg/mL
CCCCCCCCCCCCCCCCCC(=O)N[C@@H](CCCNC(=N)N)C(=O)N[C@@H](CCCNC(=N)N)C(=O)N[C@@H](CCCNC(=N)N)C(=O)N[C@@H](CCCNC(=N)N)C(=O)N[C@@H](CCCNC(=N)N)C(N)=O,human red blood cells,haemolysis,,,,HC50,> 32 µg/mL and < 32 µg/mL
Nc1ncnc2c1ccn2[C@H]1C[C@H](O)[C@@H](CO)O1,MRC-5 SV2,"cytotoxicity, resazurin",medium with 5% FBS,72 h,,EC50,> 64 µM
CC(C)[C@H](NC(=O)OC(C)(C)C)C(=O)OC1CCC2(C)C(C(O)CC3(C)C2CC(O)C2C(C4(C)CCCC(C)(C)O4)CCC23C)C1(C)C (stereo partly shown),Hep3B,"cell growth or viability, MTT",,24 h,,IC50,> 30 µM
COc1cc2c(cc1O)[C@]1(O)C(=O)c3c(O)cc4c(c3O[C@@H]1CO2)C=CC(C)(C)O4,A549,"cell growth or viability, MTT",,12.5 µg/mL,,viability,108%
COC(=O)C1CN1S(=O)(=O)c1ccc2cccc(N(C)C)c2c1 (stereo not shown),Balb/c 3T3 fibroblasts,"cytotoxicity, neutral red uptake",DMEM with 5% FBS,24 h,,IC50,18 ± 3 µM
CCCN(CC(=O)N(CCC)CC(=O)N(CCC)CC(=O)N(CCC)CC(=O)N(CC(=O)N(CCC)CC(=O)N(CCC)CC(=O)N(CCC)CC(=O)N(CCC)CC(=O)N(CC(N)=O)Cc1cn(CCCNC(=O)CCCOc2cccc(-c3nc4ccc(-c5nc6ccc(N7CCN(C)CC7)cc6[nH]5)cc4[nH]3)c2)nn1)Cc1cn(CCCNC(=O)CCCOc2cccc(-c3nc4ccc(-c5nc6ccc(N7CCN(C)CC7)cc6[nH]5)cc4[nH]3)c2)nn1)C(=O)CNCc1cn(CCCNC(=O)CCCOc2cccc(-c3nc4ccc(-c5nc6ccc(N7CCN(C)CC7)cc6[nH]5)cc4[nH]3)c2)nn1,C2C12,flow cytometry,,"5 µM, 48 h",,ligand- and PI-positive cells,4.1%
CCCCCCCCCCCCCCCCCC(=O)O[C@@H](C(=O)O[C@H]1C[C@@]2(O)[C@@H](OC(=O)c3ccccc3)[C@@H]3[C@]4(OC(C)=O)CO[C@@H]4C[C@H](O)[C@@]3(C)C(=O)[C@H](O)C(=C1C)C2(C)C)[C@@H](NC(=O)OC(C)(C)C)c1ccccc1,DU-145,MTT,,48 h,"reference: docetaxel, higher = less active",potency relative to docetaxel,36.5 fold
CC(C)(C)OC(=O)NCC(=O)OC1CC2(C)C(CC(O)C3C(C4(C)CCCC(C)(C)O4)CCC32C)C2(C)CCC(OC(=O)CNC(=O)OC(C)(C)C)C(C)(C)C12 (stereo not shown),Hep3B,"cell growth or viability, MTT",,24 h,,IC50,> 30 µM
COc1cc(/C=C/C(=O)CC(C)=O)ccc1O,normal cells,,,up to 10 µM,,cytotoxicity,toxic
COc1cc(-c2cncc(-c3ccc(N4CCNCC4)cc3)c2C)cc(OC)c1OC,Caco-2,,,"5 µM, 120 min, pH 7.4",,Papp A-B,5.4 ×10⁻⁶ cm/s
CNC(=O)C(Cc1ccccc1)NC(=O)C(O)(Cc1ccccc1)CN(Cc1ccc(Br)cc1)NC(=O)C(NC(=O)OC)C(C)(C)C (stereo not shown),Caco-2,,,"pH 7.4, 1% BSA in receiver",,Papp B-to-A,53.4 ± 3.8 ×10⁻⁶ cm/s
CCCCCCc1ccc(S(=O)(=O)N2CC2C(=O)NC)cc1 (stereo not shown),Balb/c 3T3 fibroblasts,"cytotoxicity, neutral red uptake",DMEM with 5% FBS,24 h,,IC50,9.9 ± 2.3 µM

# Excerpt of the above:
SMILES,cell line,test,test system,conditions,how to read,endpoint,value
COc1cc(-c2cncc(-c3ccc(N4CCNCC4)cc3)c2C)cc(OC)c1OC,Caco-2,,,"5 µM, 120 min, pH 7.4",,Papp A-B,5.4 ×10⁻⁶ cm/s
